Assay results collected from several papers.
Parts stem from different laboratories: compare values within a part only. “And” joins repeats or separate records; there may be more than shown.
Sequence of UniProt P42336 (whole entry, unmodified, looked up): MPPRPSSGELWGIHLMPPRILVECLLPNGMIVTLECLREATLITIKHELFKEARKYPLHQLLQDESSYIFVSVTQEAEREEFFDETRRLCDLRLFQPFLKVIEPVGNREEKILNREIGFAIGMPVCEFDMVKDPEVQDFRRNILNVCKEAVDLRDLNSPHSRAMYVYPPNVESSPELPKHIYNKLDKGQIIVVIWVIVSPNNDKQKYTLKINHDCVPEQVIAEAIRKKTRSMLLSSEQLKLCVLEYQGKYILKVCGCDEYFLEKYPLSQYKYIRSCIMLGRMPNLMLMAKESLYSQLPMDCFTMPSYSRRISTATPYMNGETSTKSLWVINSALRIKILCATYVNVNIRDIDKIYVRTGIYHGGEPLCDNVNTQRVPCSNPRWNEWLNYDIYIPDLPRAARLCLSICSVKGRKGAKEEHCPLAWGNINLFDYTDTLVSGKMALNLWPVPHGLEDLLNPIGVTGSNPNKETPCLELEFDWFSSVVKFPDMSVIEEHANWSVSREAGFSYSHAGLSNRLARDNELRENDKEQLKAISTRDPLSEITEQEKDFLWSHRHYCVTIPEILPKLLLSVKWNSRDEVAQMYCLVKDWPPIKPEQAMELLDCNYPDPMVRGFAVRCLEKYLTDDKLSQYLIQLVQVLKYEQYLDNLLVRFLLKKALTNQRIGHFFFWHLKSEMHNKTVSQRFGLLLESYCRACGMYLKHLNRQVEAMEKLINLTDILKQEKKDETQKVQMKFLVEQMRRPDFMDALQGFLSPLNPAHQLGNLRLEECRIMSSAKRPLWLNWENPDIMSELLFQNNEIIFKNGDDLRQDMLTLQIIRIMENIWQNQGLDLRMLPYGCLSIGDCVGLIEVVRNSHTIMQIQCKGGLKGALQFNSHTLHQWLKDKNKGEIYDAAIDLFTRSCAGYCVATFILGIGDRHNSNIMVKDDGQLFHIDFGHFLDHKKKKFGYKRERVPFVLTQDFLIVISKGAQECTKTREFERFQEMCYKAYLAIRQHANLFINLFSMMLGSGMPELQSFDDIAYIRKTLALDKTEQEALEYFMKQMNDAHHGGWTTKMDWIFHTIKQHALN
Sequence of UniProt P11802 (whole entry, looked up): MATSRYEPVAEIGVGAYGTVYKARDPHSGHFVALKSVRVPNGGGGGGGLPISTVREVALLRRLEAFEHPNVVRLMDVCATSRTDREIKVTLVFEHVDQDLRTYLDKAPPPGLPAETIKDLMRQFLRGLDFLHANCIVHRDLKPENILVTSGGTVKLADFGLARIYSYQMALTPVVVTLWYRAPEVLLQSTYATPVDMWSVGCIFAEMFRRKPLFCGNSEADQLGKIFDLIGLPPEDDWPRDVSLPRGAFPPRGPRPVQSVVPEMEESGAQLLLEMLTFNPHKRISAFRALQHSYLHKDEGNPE
Sequence of UniProt Q9H093 (whole entry, looked up): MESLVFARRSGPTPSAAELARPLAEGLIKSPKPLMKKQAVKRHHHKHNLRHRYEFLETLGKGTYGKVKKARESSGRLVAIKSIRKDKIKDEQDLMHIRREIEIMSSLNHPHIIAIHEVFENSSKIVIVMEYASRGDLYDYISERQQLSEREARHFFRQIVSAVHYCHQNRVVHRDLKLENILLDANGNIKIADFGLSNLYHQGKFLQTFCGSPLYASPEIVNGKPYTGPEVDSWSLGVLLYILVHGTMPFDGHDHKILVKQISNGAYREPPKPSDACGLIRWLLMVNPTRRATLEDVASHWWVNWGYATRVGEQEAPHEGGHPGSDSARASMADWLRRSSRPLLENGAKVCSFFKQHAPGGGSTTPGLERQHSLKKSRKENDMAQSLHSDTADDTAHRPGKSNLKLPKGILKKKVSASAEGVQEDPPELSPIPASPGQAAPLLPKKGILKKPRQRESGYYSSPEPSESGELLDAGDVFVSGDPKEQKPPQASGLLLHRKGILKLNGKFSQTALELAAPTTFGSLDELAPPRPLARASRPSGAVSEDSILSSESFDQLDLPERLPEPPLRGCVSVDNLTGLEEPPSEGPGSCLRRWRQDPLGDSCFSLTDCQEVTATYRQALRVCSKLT
Sequence of UniProt P10721 (whole entry, unmodified, looked up): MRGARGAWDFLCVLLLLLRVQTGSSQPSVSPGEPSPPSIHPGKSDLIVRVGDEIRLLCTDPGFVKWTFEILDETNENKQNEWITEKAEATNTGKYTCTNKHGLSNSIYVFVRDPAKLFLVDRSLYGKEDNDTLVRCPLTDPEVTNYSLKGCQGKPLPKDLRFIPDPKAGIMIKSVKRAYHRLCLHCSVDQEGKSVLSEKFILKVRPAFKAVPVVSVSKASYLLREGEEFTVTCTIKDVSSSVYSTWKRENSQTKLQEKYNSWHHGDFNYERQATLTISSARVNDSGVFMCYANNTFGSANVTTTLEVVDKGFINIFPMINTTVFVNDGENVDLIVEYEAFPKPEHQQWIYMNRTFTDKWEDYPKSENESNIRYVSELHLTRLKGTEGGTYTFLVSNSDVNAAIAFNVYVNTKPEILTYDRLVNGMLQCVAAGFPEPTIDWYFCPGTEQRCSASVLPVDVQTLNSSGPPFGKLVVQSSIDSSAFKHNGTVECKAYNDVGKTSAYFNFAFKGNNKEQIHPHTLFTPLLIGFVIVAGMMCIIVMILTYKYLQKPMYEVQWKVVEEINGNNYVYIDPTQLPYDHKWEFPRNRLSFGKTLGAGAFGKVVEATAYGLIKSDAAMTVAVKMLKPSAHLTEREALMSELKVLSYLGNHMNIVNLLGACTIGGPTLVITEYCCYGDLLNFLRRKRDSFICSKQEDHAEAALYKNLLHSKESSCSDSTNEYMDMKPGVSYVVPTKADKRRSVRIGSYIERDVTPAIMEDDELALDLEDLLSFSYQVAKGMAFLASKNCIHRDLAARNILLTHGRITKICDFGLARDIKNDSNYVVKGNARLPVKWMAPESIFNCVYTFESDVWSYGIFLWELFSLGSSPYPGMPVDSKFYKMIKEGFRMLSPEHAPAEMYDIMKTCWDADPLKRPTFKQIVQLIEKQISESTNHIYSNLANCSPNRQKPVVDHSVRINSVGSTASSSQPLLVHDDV

Sample 1 — concentration: 1 µM
SMILES: CCC1(c2cccc(-c3cn(C)nc3C)c2)C2=C(Nc3n[nH]cc31)C(F)C(C)(C)CC2=O (single isomer, unassigned)
target	effect on	method	relative to	remaining binding
Wee1-like protein kinase (WEE1, Homo sapiens, UniProt P30291)	kinase binding	KINOMEscan	DMSO control	100%
Dual specificity protein kinase CLK2 (CLK2, Homo sapiens, UniProt P49760)	kinase binding	KINOMEscan	DMSO control	100%
Calcium/calmodulin-dependent protein kinase type 1B (PNCK, Homo sapiens, UniProt Q6P2M8)	binding	competition with immobilised ligand	–	88%
Muscle, skeletal receptor tyrosine-protein kinase (MUSK, Homo sapiens, UniProt O15146)	kinase binding	KINOMEscan	DMSO control	100%
FLT3 ITD/F691L, human	–	KINOMEscan	–	100%
Mitogen-activated protein kinase kinase kinase 14 (MAP3K14, Homo sapiens, UniProt Q99558)	kinase binding	KINOMEscan	DMSO control	100%
Serine/threonine-protein kinase DCLK2 (DCLK2, Homo sapiens, UniProt Q8N568)	kinase binding	KINOMEscan	DMSO control	100%
Epidermal growth factor receptor (EGFR, Homo sapiens, UniProt P00533, del746-750)	binding	competition with immobilised ligand	–	100%
Serine/threonine-protein kinase 16 (STK16, Homo sapiens, UniProt O75716)	binding	competition with immobilised ligand	–	94%
Epidermal growth factor receptor (EGFR, Homo sapiens, UniProt P00533, A750P/del747-749)	binding	competition with immobilised ligand	–	100%
Phosphatidylinositol 4,5-bisphosphate 3-kinase catalytic subunit alpha isoform (PIK3CA, Homo sapiens, UniProt P42336, E545K)	kinase binding	KINOMEscan	DMSO control	59%
Tyrosine-protein kinase SYK (SYK, Homo sapiens, UniProt P43405)	kinase binding	KINOMEscan	DMSO control	100%

Sample 2 — effect on: kinase activity
Structure (SMILES): CNc1ncc2cc(-c3cc(OC)cc(OC)c3Cl)c(=O)n(CCc3ccc(NC(=O)C(C#N)=CC(C)(C)N4CCOCC4)cc3)c2n1
target	concentration	inhibition
Discoidin domain-containing receptor 2 (DDR2, Homo sapiens, UniProt Q16832)	0.1 µM	4%
Fibroblast growth factor receptor 2 (FGFR2, Homo sapiens, UniProt P21802)	0.1 µM	96% and > 90%
Phosphatidylinositol 4,5-bisphosphate 3-kinase catalytic subunit alpha isoform (PIK3CA, Homo sapiens, UniProt P42336)	1 µM	9%
Serine/threonine-protein kinase Nek7 (NEK7, Homo sapiens, UniProt Q8TDX7)	0.1 µM	-2%
Serine/threonine-protein kinase Chk1 (CHEK1, Homo sapiens, UniProt O14757)	1 µM	4%
Cyclin-dependent kinase 4, with cyclin D (CDK4, Homo sapiens, UniProt P11802)	1 µM	30%
Aurora kinase C (AURKC, Homo sapiens, UniProt Q9UQB9)	1 µM	1%
Protein kinase C zeta type (PRKCZ, Homo sapiens, UniProt Q05513)	0.1 µM	-5%
Homeodomain-interacting protein kinase 3 (HIPK3, Homo sapiens, UniProt Q9H422)	1 µM	-1%
Angiopoietin-1 receptor (TEK, Homo sapiens, UniProt Q02763)	1 µM	6%
High affinity nerve growth factor receptor (NTRK1, Homo sapiens, UniProt P04629)	0.1 µM	-1%
Calcium/calmodulin-dependent protein kinase type II subunit delta (CAMK2D, Homo sapiens, UniProt Q13557)	1 µM	7%

Sample 3 — effect on: binding; method: competition with immobilised ligand; concentration: 1 µM
Structure (SMILES): COc1cc(-c2nc3ccc(C(=O)NCCCN4CCN(c5cccc(C)c5C)CC4)cc3n2C2CCC2)cc(OC)c1OC
target	remaining binding [%]
Serine/threonine-protein kinase B-raf (BRAF, Homo sapiens, UniProt P15056)	97
Epidermal growth factor receptor (EGFR, Homo sapiens, UniProt P00533, G719S)	93
Ephrin type-B receptor 6 (EPHB6, Homo sapiens, UniProt O15197)	77
Receptor-type tyrosine-protein kinase FLT3 (FLT3, Homo sapiens, UniProt P36888, R834Q)	99
Tyrosine-protein kinase ABL1, phosphorylated (ABL1, Homo sapiens, UniProt P00519, M351T)	74
Tyrosine-protein kinase JAK3, JH1 (JAK3, Homo sapiens, UniProt P52333)	82
3-phosphoinositide-dependent protein kinase 1 (PDPK1, Homo sapiens, UniProt O15530)	80
Mitogen-activated protein kinase 12 (MAPK12, Homo sapiens, UniProt P53778)	78
NUAK family SNF1-like kinase 2 (NUAK2, Homo sapiens, UniProt Q9H093)	89
Mast/stem cell growth factor receptor Kit (KIT, Homo sapiens, UniProt P10721, V559D/V654A)	100
Cyclin-dependent kinase 4, with cyclin D1 (CDK4, Homo sapiens, UniProt P11802)	93
Serine/threonine-protein kinase pim-2 (PIM2, Homo sapiens, UniProt Q9P1W9)	92
Casein kinase I isoform gamma-1 (CSNK1G1, Homo sapiens, UniProt Q9HCP0)	93
LIM domain kinase 1 (LIMK1, Homo sapiens, UniProt P53667)	92

Sample 4 — Compound: O=C(Nc1ccccc1)Nc1cccc(Oc2ccc3nccn3n2)c1; effect on: binding; concentration: 1 µM
target	method	remaining binding
NUAK family SNF1-like kinase 2 (NUAK2, Homo sapiens, UniProt Q9H093)	–	100%
Hormonally up-regulated neu tumor-associated kinase (HUNK, Homo sapiens, UniProt P57058)	–	82%
Ribosomal protein S6 kinase alpha-6, N-terminal kinase domain (RPS6KA6, Homo sapiens, UniProt Q9UK32)	competition with immobilised ligand	100%
Casein kinase II subunit alpha' (CSNK2A2, Homo sapiens, UniProt P19784)	–	100%
Serine/threonine-protein kinase ULK2 (ULK2, Homo sapiens, UniProt Q8IYT8)	–	100%
Cyclin-dependent kinase-like 2 (CDKL2, Homo sapiens, UniProt Q92772)	competition with immobilised ligand	96%
Phosphatidylinositol 4,5-bisphosphate 3-kinase catalytic subunit gamma isoform (PIK3CG, Homo sapiens, UniProt P48736)	–	94%
Tyrosine-protein kinase Fes/Fps (FES, Homo sapiens, UniProt P07332)	–	100%
Casein kinase I isoform alpha (CSNK1A1, Homo sapiens, UniProt P48729)	–	100%
Mast/stem cell growth factor receptor Kit (KIT, Homo sapiens, UniProt P10721, L576P)	–	0%
Leukocyte tyrosine kinase receptor (LTK, Homo sapiens, UniProt P29376)	–	100%
Homeodomain-interacting protein kinase 1 (HIPK1, Homo sapiens, UniProt Q86Z02)	competition with immobilised ligand	100%

Sample 5 — method: microarray; relative to: untreated
SMILES: COCCCCCCC1CC2C(CCC3(C)C(O)CCC23)c2ccc(O)cc21 (stereo not shown)
cell line	item	concentration	log2 fold change
PANC-1	ISG20L1	10 µM	-0.0254
A549	GADD45A	10 µM	0.953
A549	CCL11	50 µM	0
PANC-1	ACTA2	10 µM	-0.302
PANC-1	UBB	10 µM	-0.973
PANC-1	ADAMTS14	10 µM	-0.403

Sample 6
SMILES: Cc1ccc(O)c(C)c1-c1cnc2[nH]c(-c3cnc(N)nc3)cc2c1C#N
PKMYT1: Membrane-associated tyrosine- and threonine-specific cdc2-inhibitory kinase (PKMYT1, Homo sapiens, UniProt Q99640)
Sequence of UniProt Q99640 (whole entry, looked up): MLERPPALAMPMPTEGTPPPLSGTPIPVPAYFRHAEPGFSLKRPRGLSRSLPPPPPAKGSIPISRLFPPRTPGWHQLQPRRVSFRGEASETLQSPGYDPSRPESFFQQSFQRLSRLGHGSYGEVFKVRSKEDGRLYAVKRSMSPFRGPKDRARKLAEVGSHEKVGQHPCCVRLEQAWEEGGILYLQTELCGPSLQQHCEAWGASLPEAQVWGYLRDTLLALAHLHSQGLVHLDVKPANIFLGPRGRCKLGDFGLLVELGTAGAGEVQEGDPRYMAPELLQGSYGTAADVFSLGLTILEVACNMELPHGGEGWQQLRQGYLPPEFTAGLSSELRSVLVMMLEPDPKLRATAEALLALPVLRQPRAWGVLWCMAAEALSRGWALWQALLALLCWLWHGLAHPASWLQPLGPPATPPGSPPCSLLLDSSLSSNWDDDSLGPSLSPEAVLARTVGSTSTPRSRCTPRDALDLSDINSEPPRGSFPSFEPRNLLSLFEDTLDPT
target or system	effect on	mode	method	item	concentration	inhibition
MKN-1	cell proliferation	–	–	–	370.37 nM	48.8%
PKMYT1	–	–	–	–	0.0004572 µM	0.676% and 7.54%
PKMYT1	enzyme activity	inhibitor	–	–	460 pM	13.1%
HCC1569	cell proliferation	–	–	–	4.57 nM	-1.23%
HCC1806	cell proliferation	–	–	–	1.524 nM	-1.46%
PKMYT1	–	–	–	–	1 µM	99.8%
HuCCT-1	cell proliferation	–	–	–	30000 nM	99.1%
U-251 MG	cell growth	–	–	–	0.5081 nM	2.13%
HCC1569	cell proliferation	–	–	–	41.15 nM	4.56%
HCC1569	cell proliferation	–	–	–	3333.33 nM	94.7%
NCI-H1648	cell proliferation	–	–	–	258.4 nM	-18.8%
PKMYT1	cell-free assay	–	TR-FRET	–	37.04 nM	98.3%
MKN-1	cell proliferation	–	–	–	1.524 nM	-2.27%
PKMYT1	cell-free assay	–	TR-FRET	–	4.12 nM	68.1%
HCC1569	–	–	automated capillary immunoblot	CDK1 phospho-Thr14	333.33 nM	64.1%
HCC1569	cell proliferation	–	–	–	123.46 nM	11.7%

Sample 7 — cell line: U-87 MG; concentration: concentration not given; relative to: DMSO
Structure (SMILES): CCN1/C(=C/C=C2\CCCC(/C=C/C3=[N+](CC)c4ccccc4C3(C)C)=C2NCCCCCCCCN2CCC(Nc3nc4ccccc4n3Cc3ccc(F)cc3)CC2)C(C)(C)c2ccccc21
item	log2 fold change
TWIST1 mRNA	-1.16
P3H4 mRNA	-1.31
MAFK mRNA	1.8
FAT1 mRNA	1.23
PDLIM4 mRNA	-4.89
CRISPLD1 mRNA	-2.16
IL22RA1 mRNA	-1.98
CADM1 mRNA	2.4
PI3 mRNA	4.65
MYLK mRNA	-1.98
UBB mRNA	0.915
SH3RF2 mRNA	-1.56
KIF15 mRNA	-2.03
ENDOD1 mRNA	-1.13
MCAM mRNA	-1.15
TSPOAP1 mRNA	-1.87

Sample 8 — time: 6 days
SMILES: Cc1ncsc1-c1ccc(C(CO)NC(=O)C2CC(O)CN2C(=O)C(C(C)C)n2cc(-c3ccc(COc4c(-c5c(C)c(F)cc6[nH]ncc56)c(C5CC5)cc5c(N6CC7CC6CN7)nc(OC6CCOCC6)nc45)cc3)nn2)cc1 (stereo not shown)
cell line	effect on	method	concentration	relative to	viability
LCLC-97TM1	cell growth or viability	ATP luminescence	10 µM	–	12.7% and 16.1% and 14.9%
GP5d	cell growth or viability	ATP luminescence	1 nM	–	50.9% and 71.7% and 74.6% and 80.7%
NCI-H358	cell growth or viability	ATP luminescence	1 nM	–	96.9% and 92.7% and 98.8% and 90.2%
HT-29	cell growth or viability	ATP luminescence	1 µM	–	70.4% and 96.1% and 80.6% and 79.1%
AsPC-1	–	CellTiter-Glo	10 nM	DMSO	74.3% and 62.9% and 75.8%
PaTu 8902	cell growth or viability	ATP luminescence	3 µM	–	38.9% and 35.7% and 42.1% and 37.7%
ASPC1	cell growth or viability	ATP luminescence	0.3 µM	–	9.75% and 9.31% and 8.71% and 11.1%

Sample 9 — effect on: thermal unfolding; method: differential scanning fluorimetry; concentration: 5.5 µM; direction: higher = more unfolded
SMILES: C[C@@H]1CN(c2ccc(-c3cc(C(=O)NCCOCCOCCOCCOCCNC(=O)Cn4cc(-c5[nH]cc(C(=O)N[C@@H](CC(N)=O)c6ccc(F)c(Cl)c6)c5-c5ccc(Cl)cc5F)cn4)ccc3F)cc2NC(=O)c2c[nH]c(=O)cc2C(F)(F)F)C[C@H](C)N1C
DCAF1: DDB1- and CUL4-associated factor 1 (DCAF1, Homo sapiens, UniProt Q9Y4B6)
Sequence of UniProt Q9Y4B6 (whole entry, looked up): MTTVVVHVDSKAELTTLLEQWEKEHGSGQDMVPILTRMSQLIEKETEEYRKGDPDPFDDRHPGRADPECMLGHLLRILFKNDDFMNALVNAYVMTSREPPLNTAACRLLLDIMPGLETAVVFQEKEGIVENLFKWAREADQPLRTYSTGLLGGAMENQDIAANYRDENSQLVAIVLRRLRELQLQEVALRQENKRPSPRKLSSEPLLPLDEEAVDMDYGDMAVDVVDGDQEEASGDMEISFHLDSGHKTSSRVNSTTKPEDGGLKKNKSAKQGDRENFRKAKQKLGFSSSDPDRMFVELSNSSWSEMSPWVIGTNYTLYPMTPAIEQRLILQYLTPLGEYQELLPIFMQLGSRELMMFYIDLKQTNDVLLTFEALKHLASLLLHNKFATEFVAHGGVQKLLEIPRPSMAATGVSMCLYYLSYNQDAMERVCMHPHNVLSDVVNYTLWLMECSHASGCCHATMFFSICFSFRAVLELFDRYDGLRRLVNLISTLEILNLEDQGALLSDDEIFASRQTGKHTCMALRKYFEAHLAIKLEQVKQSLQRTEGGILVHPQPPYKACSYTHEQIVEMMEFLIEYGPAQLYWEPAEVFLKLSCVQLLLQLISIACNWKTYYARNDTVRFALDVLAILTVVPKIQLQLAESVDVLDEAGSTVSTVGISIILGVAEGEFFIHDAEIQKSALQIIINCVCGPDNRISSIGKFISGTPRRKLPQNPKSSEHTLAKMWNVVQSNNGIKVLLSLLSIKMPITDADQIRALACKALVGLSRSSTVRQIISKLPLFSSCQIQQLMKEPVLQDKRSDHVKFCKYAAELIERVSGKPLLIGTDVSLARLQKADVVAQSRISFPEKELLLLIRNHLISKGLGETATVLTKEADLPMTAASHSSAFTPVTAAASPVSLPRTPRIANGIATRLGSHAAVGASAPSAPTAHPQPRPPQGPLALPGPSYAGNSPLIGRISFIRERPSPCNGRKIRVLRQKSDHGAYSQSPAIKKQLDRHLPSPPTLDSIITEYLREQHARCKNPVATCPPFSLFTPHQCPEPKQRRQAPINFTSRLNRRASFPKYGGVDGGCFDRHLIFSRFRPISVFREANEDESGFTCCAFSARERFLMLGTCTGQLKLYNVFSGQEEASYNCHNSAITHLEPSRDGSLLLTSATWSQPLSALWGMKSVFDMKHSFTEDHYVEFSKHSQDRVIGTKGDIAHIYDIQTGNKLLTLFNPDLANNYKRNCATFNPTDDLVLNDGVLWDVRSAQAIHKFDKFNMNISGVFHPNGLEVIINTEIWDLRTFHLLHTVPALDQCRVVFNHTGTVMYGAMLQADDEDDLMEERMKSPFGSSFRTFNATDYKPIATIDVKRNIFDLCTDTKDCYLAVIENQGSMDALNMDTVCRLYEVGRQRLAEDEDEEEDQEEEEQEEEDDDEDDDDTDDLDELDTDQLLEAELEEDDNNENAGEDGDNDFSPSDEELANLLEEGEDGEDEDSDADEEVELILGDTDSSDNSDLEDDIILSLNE
WDR5: WD repeat-containing protein 5 (WDR5, Homo sapiens, UniProt P61964)
target	temperature	SYPRO Orange fluorescence
DCAF1	37 °C	9400 a.u.
DCAF1	58.41 °C	30500 a.u.
DCAF1	56.41 °C	23000 a.u.
WDR5	70.01 °C	6820 a.u.
WDR5	83.61 °C	35500 a.u.
DCAF1	40.2 °C	10400 a.u.
DCAF1	70.41 °C	54000 a.u.
WDR5	63.61 °C	8410 a.u.
DCAF1	52.01 °C	15800 a.u.
WDR5	43.6 °C	14400 a.u.
WDR5	59.01 °C	11000 a.u.

Some of these lines once more (sample 1):
target	effect on	method	relative to	remaining binding
Wee1-like protein kinase (WEE1, Homo sapiens, UniProt P30291)	kinase binding	KINOMEscan	DMSO control	100%
Muscle, skeletal receptor tyrosine-protein kinase (MUSK, Homo sapiens, UniProt O15146)	kinase binding	KINOMEscan	DMSO control	100%
Epidermal growth factor receptor (EGFR, Homo sapiens, UniProt P00533, del746-750)	binding	competition with immobilised ligand	–	100%
Serine/threonine-protein kinase 16 (STK16, Homo sapiens, UniProt O75716)	binding	competition with immobilised ligand	–	94%
Mitogen-activated protein kinase kinase kinase 14 (MAP3K14, Homo sapiens, UniProt Q99558)	kinase binding	KINOMEscan	DMSO control	100%
Epidermal growth factor receptor (EGFR, Homo sapiens, UniProt P00533, A750P/del747-749)	binding	competition with immobilised ligand	–	100%
